Measurements gathered from unrelated publications.
A part holds a random share of what one study measured. Positions count from the first letter of the parent shown.

Block 1
Target: ABI1, truncated, D143A, DHFR fusion (Arabidopsis thaliana)
Technique: DHFR PCA, deep sequencing
Medium: yeast
Setting: methotrexate growth selection, single substitutions
Added: (+)-ABA 0.0091 µM
Relative to: wild-type fitted maximum
Reading: higher = stronger binding
Endpoint: relative binding score
Parent: PYL1, truncated, DHFR fusion (Arabidopsis thaliana); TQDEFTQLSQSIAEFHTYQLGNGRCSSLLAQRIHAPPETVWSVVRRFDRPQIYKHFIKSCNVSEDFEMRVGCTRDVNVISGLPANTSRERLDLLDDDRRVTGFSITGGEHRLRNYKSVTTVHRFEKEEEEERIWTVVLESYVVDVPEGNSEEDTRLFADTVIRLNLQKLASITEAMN; partner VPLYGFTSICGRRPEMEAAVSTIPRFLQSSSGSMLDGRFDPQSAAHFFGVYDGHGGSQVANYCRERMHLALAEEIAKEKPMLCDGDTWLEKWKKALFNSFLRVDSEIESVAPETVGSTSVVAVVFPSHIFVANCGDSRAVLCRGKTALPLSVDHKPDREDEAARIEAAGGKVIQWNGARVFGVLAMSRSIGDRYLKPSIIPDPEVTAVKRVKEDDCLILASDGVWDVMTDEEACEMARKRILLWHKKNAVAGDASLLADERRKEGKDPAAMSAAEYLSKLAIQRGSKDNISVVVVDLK
V40D: -1.92%
K168W: 12.1%
I57A: -5.09%
S9A: 34.6%
R90A: -1.42%

Block 2
Target: RNA binding protein fox-1 homolog 2, RRM domain, GST-SBP tag (RBFOX2, Homo sapiens, UniProt O43251-10, residues 100-194)
Technique: RNA Bind-n-Seq
Form: RNA
Medium: in vitro
Tested at: 365 nM
Setting: natural RNA segment, single round, ends assumed
Relative to: no-protein control
Reading: higher = stronger binding
Endpoint: RBNS enrichment (R)
Residues (chain): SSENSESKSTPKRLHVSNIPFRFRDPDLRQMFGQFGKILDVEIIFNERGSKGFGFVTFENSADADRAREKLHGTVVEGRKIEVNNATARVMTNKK
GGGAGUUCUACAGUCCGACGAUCAUGGAAGAAAAUGGAAUUACUCCAAAAAGACAAGUGCUCAAGCAGCAAAAUCCUUACUUCCAGCAAAAUCCAAACUGCUGUCUCUUAAAUCUCUUAAACUCUCUUCUUCCUGGAAUUCUCGGGUGCCAA: 0.45
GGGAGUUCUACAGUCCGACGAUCCUGGGCCCUUGAGAGGGGCUCUGUGGCUGCAGAGCUGUUUUUACCCUGACAACUGGGUUUGUCCUCCCUACUCCCACCCCAAGUGGUCAAUAAGUCUUAUUUGCAAAAGCUGGAAUUCUCGGGUGCCAA: 0.63
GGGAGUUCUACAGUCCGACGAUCCAGACCACACAGACCGUCUGAAAUGCGCCCGCCUGGCGGACAGCUCCCUUCUGAAGCAGAGAAGCCUCCAUGGUCACGAAGCAGCGUUGUGCUGUGUGUCCCUCGCAAGAUGGAAUUCUCGGGUGCCAA: 0.366
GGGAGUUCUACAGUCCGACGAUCUUCAUGUACAAGGCCCCUCUGCAACUGGAGAGAAAAUUAAUUCCUAUCCCGUGAGUGGAUUGUGAGAAAUUCCACCCACGUGGAGACAGCUUACUGCAGCACUGUUGGUGUGGAAUUCUCGGGUGCCAA: 0.28
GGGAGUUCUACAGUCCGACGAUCCCCCCCAGAGCUAGAGAGAUGGGGCCCCUGCGUGGCCCGAGGGGCAGAGCUGGGCGUCACUUCGCAAGCGUCCUGCCCUGCCGGGGCGCGGGGGUGGGCUCUGGGGAAGCUGGAAUUCUCGGGUGCCAA: 1.23
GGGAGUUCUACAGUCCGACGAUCUAGUCCCAUACCCUGAAGUAAUAUGUACCAUGGCUCCCACCUACCUGUUUAUGCUCUCCCUGCCCCCAGGGAAACUGUUUAUUCUUUCAAAAGAAGCAAACAGCGUUCAUUGGAAUUCUCGGGUGCCAA: 0.359
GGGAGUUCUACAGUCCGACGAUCGGUCUGAGUCUUCUGGAGCUGUGUAGUUAAUCUUCGGUUUCUGAUAACCCCUGGGUCCAUCUGGCCAUCAGCCUCAGCAGUGAGCAAAGCAAUACCAUACUCAUUUCUAUUGGAAUUCUCGGGUGCCAA: 0.289
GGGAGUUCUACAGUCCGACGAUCACCUCAGUUGUCCUGCCCUGUGGAAUGGGCUCAAGGUUCCUGAGACACCCGAUUCCUGCCCAAACAGCUGUAUUUAUAUAAGUCUGUUAUUUAUUAUUAAUUUAUUGGGGUGGAAUUCUCGGGUGCCAA: 0.289

Block 3
Target: CCNF, cyclin fold, Cln2 fusion (human)
Technique: yeast growth competition, sequencing
Medium: yeast
Setting: strong parent motif
Relative to: not given
Reading: higher = stronger binding
Endpoint: normalised enrichment score
Parent: CDKN1A docking peptide (human); SKACRRLFGPVDS; partner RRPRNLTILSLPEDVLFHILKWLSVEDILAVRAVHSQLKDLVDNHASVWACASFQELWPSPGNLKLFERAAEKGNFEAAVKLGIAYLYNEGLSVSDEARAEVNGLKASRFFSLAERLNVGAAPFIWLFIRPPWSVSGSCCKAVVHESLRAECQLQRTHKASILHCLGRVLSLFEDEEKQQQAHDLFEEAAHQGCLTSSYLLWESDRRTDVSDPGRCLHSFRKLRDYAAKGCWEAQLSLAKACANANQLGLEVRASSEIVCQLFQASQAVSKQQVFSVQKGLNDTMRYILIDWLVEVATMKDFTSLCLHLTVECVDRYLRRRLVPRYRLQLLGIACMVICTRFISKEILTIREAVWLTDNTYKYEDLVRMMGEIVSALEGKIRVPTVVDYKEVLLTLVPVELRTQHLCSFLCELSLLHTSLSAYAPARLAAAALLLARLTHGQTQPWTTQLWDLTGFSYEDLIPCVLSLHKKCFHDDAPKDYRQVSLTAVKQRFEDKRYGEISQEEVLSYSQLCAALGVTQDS
SKACRRLFGCVDS [P10C]: 6.53
SKACRRSFGPVDS [L7S]: 0.0729
SKACRRNFGPVDS [L7N]: 0.108
SKACRRLFKPVDS [G9K]: 6.05
SKACRRLFGPKDS [V11K]: 7.25
SKACRWLFGPVDS [R6W]: 1.53
SKACRLLFGPVDS [R6L]: 4.19

Mixed results
PhoQ, residues 284 288 289 292 302 303 TAVSDG  fold induction (PhoP, residues 12 14 15 18 19 LHHSG (Escherichia coli, UniProt P23836); Sort-seq, measured: YFP reporter; E. coli; PhoQ-PhoP variant library, added: 10 µM Mg2+; relative to: high Mg2+ state, higher = stronger signaling): 3.2

Excerpt of the above (mixed results):
PhoQ, residues 284 288 289 292 302 303 TAVSDG  fold induction (PhoP, residues 12 14 15 18 19 LHHSG (Escherichia coli, UniProt P23836); Sort-seq, measured: YFP reporter; E. coli; PhoQ-PhoP variant library, added: 10 µM Mg2+; relative to: high Mg2+ state, higher = stronger signaling): 3.2
